Measurements collected from several papers.
Protocols differ between the studies behind these lines. Numbers after ± are the reported error. In brackets after ≈: the same amount, converted by molar mass.

O=c1[nH]c(=O)[nH]c(=O)[nH]1 has a serum concentration of over 54 µg/mL (CD IGS rat, female, non-pregnant, serum; oral, 1000 mg/kg/day, 10 days, with rectangular renal crystals).
For CC[C@H](NC(=O)CCC(=O)O)C(=O)N[C@H](C(=O)N[C@@H](CC(C)C)C(=O)N[C@@H](CCC(N)=O)C(=O)Nc1ccc2c(C)cc(=O)oc2c1)C(C)(C)C, the solubility was 6.21 ± 0.18 mM (≈ 4440 µg/mL) (shake-flask HPLC; 1 h, pH 7.2, 37 °C, 5% DMSO, 0.01% Triton X-100).
CN[C@@](C)(C[18F])C(=O)O gave a tissue uptake of 0.9 ± 0.2 %ID/g (SCID mouse DU-145 xenograft, muscle; 30 min, post injection).
N[C@H](Cc1ccc(F)cc1)C(=O)O — result for “brain uptake clearance Kin”: 8.4 mL/100 g/min (in situ brain perfusion; CF-1 mice, wild type; 1 µM, 60-180 s).
Nc1cc(C(F)(F)F)c(-c2cc(N3CCOCC3)nc(N3CCOCC3)n2)cn1: “unbound Cmax increase” 83% (severe hepatic impairment, plasma; oral, 30 mg; baseline: normal hepatic function).
O[C@H]1CCCN[C@@H]1CCCn1cnc2c(Cl)c(Cl)ccc21 has a half-life of 9.9 h (human, plasma; oral, 600 mg, single dose, healthy volunteers).
Oc1ccc2ccc3cccc4ccc1c2c34 has a tissue concentration of 1100 ± 80 ng/g (HPLC-fluorescence; Wistar rat, male, duodenum; oral, 4 mg/kg PY, 24 h).
C#CCN(C)CCCCCCOCc1ccc(CN(C)c2c3c(nc4ccccc24)CCCC3)cc1 gave a bioavailability of at most 90% (male Sprague-Dawley rat, plasma; intraperitoneal, 10 mg/kg).
C#Cc1cccc2c1[nH]c1cnc(C(=O)OC(C)(C)C)cc12 gave a brain concentration of 91.4 ± 29.4 nM (Wistar rat, brain; intraperitoneal, 10 mg/kg single dose on day 4, 20 min after dose, vehicle for 3 days before).
CC(=O)N[C@H](CCCCNC(=O)C(C)F)C(=O)N[C@@H](CS)C(=O)N[C@@H](CS)C(=O)N[C@@H](CCC(=O)O)C(=O)N[C@@H](Cc1c[nH]cn1)C(=O)N[C@H](Cc1ccccc1)C(=O)N[C@@H](CCCNC(=N)N)C(=O)N[C@@H](Cc1c[nH]c2ccccc12)C(=O)N[C@@H](CS)C(=O)N[C@@H](CCCNC(=N)N)C(=O)N1CCC[C@H]1C(=O)N[C@H](C(N)=O)C(C)C (stereo partly drawn) [fluorine-18 labelled] — result for “tumour to muscle ratio”: 4.49 ± 0.17 (Foxn1 nude mouse, A375M xenograft; intravenous, 2 h).
CSCC[C@@H]1NC(=O)[C@H](CC(=O)O)NC(=O)CNC(=O)[C@H](CCCNC(=N)N)NC(=O)[C@H](C)NC(=O)[C@H](CCC(=O)O)NC(=O)[C@H](CCCNC(=N)N)NC(=O)[C@@H]2CSSC[C@@H]3NC(=O)[C@H](CO)NC(=O)[C@H]([C@@H](C)O)NC(=O)[C@@H]4CCCN4C(=O)[C@H](C)NC(=O)[C@H](Cc4c[nH]c5ccccc45)NC(=O)[C@H](CC(=O)O)NC(=O)CNC(=O)[C@H](CCCNC(=N)N)NC(=O)CNC(=O)[C@H](CCC(N)=O)NC(=O)[C@@H]4CCCN4C(=O)[C@@H](NC(=O)CNC(=O)C(C)F)CSSC[C@H](NC(=O)CNC(=O)[C@H](C)NC(=O)[C@H](CC(C)C)NC(=O)[C@H](CSSC[C@@H](C(=O)NCC(N)=O)NC(=O)[C@H]([C@@H](C)O)NC(=O)[C@H](CCCNC(=N)N)NC(=O)[C@@H]4CCCN4C1=O)NC(=O)[C@H](CC(=O)O)NC(=O)[C@H](CO)NC(=O)[C@H](CC(=O)O)NC(=O)[C@H](CCC(N)=O)NC(=O)[C@H](CO)NC3=O)C(=O)N[C@@H](C(C)C)C(=O)N2 (stereo partly drawn) [fluorine-18 labelled] has a tissue uptake of 0.36 ± 0.07 %ID/g (nude mice U-87 MG xenograft, blood; intravenous, 1 h).
CC1(C)S[C@@H]2[C@H](NC(=O)[C@@H](C(=O)O)c3ccsc3)C(=O)N2[C@H]1C(=O)O gave a relative error of 2.4% (rat plasma; 2400 ng/mL, 24 h, room temperature, short-term stability; baseline: nominal concentration).

A few entries again:
Oc1ccc2ccc3cccc4ccc1c2c34 has a tissue concentration of 1100 ± 80 ng/g (HPLC-fluorescence; Wistar rat, male, duodenum; oral, 4 mg/kg PY, 24 h).
CSCC[C@@H]1NC(=O)[C@H](CC(=O)O)NC(=O)CNC(=O)[C@H](CCCNC(=N)N)NC(=O)[C@H](C)NC(=O)[C@H](CCC(=O)O)NC(=O)[C@H](CCCNC(=N)N)NC(=O)[C@@H]2CSSC[C@@H]3NC(=O)[C@H](CO)NC(=O)[C@H]([C@@H](C)O)NC(=O)[C@@H]4CCCN4C(=O)[C@H](C)NC(=O)[C@H](Cc4c[nH]c5ccccc45)NC(=O)[C@H](CC(=O)O)NC(=O)CNC(=O)[C@H](CCCNC(=N)N)NC(=O)CNC(=O)[C@H](CCC(N)=O)NC(=O)[C@@H]4CCCN4C(=O)[C@@H](NC(=O)CNC(=O)C(C)F)CSSC[C@H](NC(=O)CNC(=O)[C@H](C)NC(=O)[C@H](CC(C)C)NC(=O)[C@H](CSSC[C@@H](C(=O)NCC(N)=O)NC(=O)[C@H]([C@@H](C)O)NC(=O)[C@H](CCCNC(=N)N)NC(=O)[C@@H]4CCCN4C1=O)NC(=O)[C@H](CC(=O)O)NC(=O)[C@H](CO)NC(=O)[C@H](CC(=O)O)NC(=O)[C@H](CCC(N)=O)NC(=O)[C@H](CO)NC3=O)C(=O)N[C@@H](C(C)C)C(=O)N2 (stereo partly drawn) [fluorine-18 labelled] has a tissue uptake of 0.36 ± 0.07 %ID/g (nude mice U-87 MG xenograft, blood; intravenous, 1 h).
